# Measured values collected from several papers.
# Protocols differ between the studies behind these lines.
# Cell line: PC-3
SMILES,effect on,method,time,setting,IC50 [µM]
COc1ccc2sc3c(c2c1)SCCNC3=O,cell growth or viability,MTT,,,24
COc1cc(/C=C(\C#N)C(=O)Nc2nnc(C(F)(F)F)s2)ccc1OC(=O)N1CCN(C(=O)CCCC(=O)NCCCC[C@@H]2NC(=O)[C@@H](Cc3ccc(O)cc3)NC(=O)[C@H](CC(=O)O)NC(=O)CNC(=O)[C@H](CCCNC(=N)N)NC2=O)CC1,cytotoxicity,MTT,48 h,,> 100
CCc1c2c(nc3ccc(O)cc13)-c1cc3c(c(=O)n1C2)COC(=O)[C@@]3(CC)OC(=O)[C@H](CC(C)C)NC(=O)[C@H](CCC(N)=O)NC(=O)[C@H](CC(C)C)NC(=O)[C@H](CCCCN)NC(=O)[C@H](CO)NC(=O)[C@H](CO)NC(=O)[C@H](Cc1c[nH]cn1)NC(=O)COCCOCCOCCNC(=O)CCCCC(=O)N1Cc2ccccc2-c2c(nnn2CCOCCOCCOCCOCCC(=O)N[C@@H](Cc2c[nH]cn2)C(=O)N[C@@H](CO)C(=O)N[C@@H](CO)C(=O)N[C@@H](CCCCN)C(=O)N[C@@H](CC(C)C)C(=O)N[C@@H](CCC(N)=O)C(=O)N[C@@H](CC(C)C)C(=O)O[C@@H](C(=O)O[C@H]2C[C@@]3(O)[C@@H](OC(=O)c4ccccc4)[C@@H]4[C@]5(OC(C)=O)CO[C@@H]5C[C@H](OC)[C@@]4(C)C(=O)[C@H](OC)C(=C2C)C3(C)C)[C@@H](NC(=O)OC(C)(C)C)c2ccccc2)-c2ccccc21,cell growth or viability,XTT,72 h,,0.00635
Cc1nn(-c2ccccc2)c(O)c1C(c1cccs1)c1c(C)nn(-c2ccccc2)c1O,cell growth or viability,MTT,48 h,,> 40
CCCCCCCCc1ccc(C(=O)N[C@@H](CO)C(=O)N[C@H](C(=O)N[C@@H](C)C(=O)N[C@H](C(N)=O)[C@@H](C)CC)[C@@H](C)OP(=O)(O)O)cc1,cell growth or viability,MTT,72 h,,41.5
CC[C@H](C)[C@H](NC(=O)[C@H](CCCCN)NC(=O)[C@H](CCCCN)NC(=O)[C@H](C)NC(=O)[C@@H](NC(=O)[C@H](C)NC(=O)[C@H](CC(C)C)NC(=O)[C@H](CC(C)C)NC(=O)[C@H](C)NC(=O)[C@H](CCCCN)NC(=O)[C@H](CC(C)C)NC(=O)[C@H](CC(N)=O)NC(=O)[C@@H](N)CC(C)C)C(C)C)C(=O)N[C@@H](CC(C)C)C(N)=O,cell growth or viability,MTT,,,6.29
CC(C)C12OC1C1OC13C1(C)CCC4=C(COC4=O)C1CC1OC13C2OC(=O)CCCOC1OC(CO)C(O)C(O)C1O (stereo not drawn),cell growth,[3H]-thymidine incorporation,48 h,1% oxygen hypoxia,0.081
Cc1nn(-c2ccccc2)c(O)c1C(c1ccc(F)cc1)c1c(C)nn(-c2ccccc2)c1O,cell growth or viability,MTT,48 h,,35.9
CC(C)C[C@H](NC(=O)[C@H](C)NC(=O)[C@H](C)NC(=O)[C@H](CCC(N)=O)NC(=O)[C@H](C)NC(=O)[C@H](CO)NC(=O)[C@H](CC(C)C)NC(=O)[C@H](C)NC(=O)[C@@H](NC(=O)[C@H](C)NC(=O)[C@H](Cc1ccc(O)cc1)NC(=O)[C@H](CO)NC(=O)[C@H](CCCCN)NC(=O)[C@H](C)NC(=O)[C@H](Cc1ccccc1)NC(=O)[C@H](CCCCN)NC(=O)[C@H](C)NC(=O)[C@H](Cc1ccccc1)NC(=O)[C@H](CCCCN)NC(=O)[C@H](CCCCN)NC(=O)[C@H](C)NC(=O)[C@H](Cc1ccccc1)NC(=O)[C@H](CCCCN)NC(=O)[C@H](C)NC(=O)[C@H](Cc1ccccc1)NC(=O)[C@H](CCCCN)NC(=O)[C@H](CCCCN)NC(=O)[C@H](C)NC(=O)[C@H](Cc1ccccc1)NC(=O)[C@H](CCCCN)NC(=O)[C@H](C)NC(=O)[C@H](Cc1ccccc1)NC(=O)[C@@H](N)CCCCN)C(C)C)C(=O)N[C@@H](C)C(=O)N[C@@H](CCCNC(=N)N)C(=O)N[C@@H](CCCNC(=N)N)C(=O)O,viable cell number,MTS,6 h,,5.5
Cc1nn(-c2ccccc2)c(O)c1C(c1ccc(N(C)C)cc1)c1c(C)nn(-c2ccccc2)c1O,cell growth or viability,MTT,48 h,,> 40
CCCCCCCCCc1ccc(C(=O)N[C@@H](CO)C(=O)N[C@H](C(=O)N[C@@H](C)C(=O)N[C@H](C(N)=O)[C@@H](C)CC)[C@@H](C)OP(=O)(O)O)cc1,cell growth or viability,MTT,72 h,,27
CCc1ccc(C(c2c(C)nn(-c3ccccc3)c2O)c2c(C)nn(-c3ccccc3)c2O)cc1,cell growth or viability,MTT,48 h,,30.6
O=C(C[P+]([Au-][Cl])(c1ccccc1)c1ccccc1)[O][Ti+2][O]C(=O)C[P+]([Au-][Cl])(c1ccccc1)c1ccccc1.c1cc[cH-]c1.c1cc[cH-]c1,cell viability,XTT,24 h,,51.7
Cc1nn(-c2ccccc2)c(O)c1C(c1ccc([N+](=O)[O-])cc1)c1c(C)nn(-c2ccccc2)c1O,cell growth or viability,MTT,48 h,,35.4
C1CCN(C2CCNCC2)CC1.CCCC(CCC)C(=O)[O][Pt]([OH])([Cl])[Cl].CCCCN,cell growth or viability,,,,16.8

# Repeated from above:
SMILES,effect on,method,time,setting,IC50 [µM]
Cc1nn(-c2ccccc2)c(O)c1C(c1ccc(F)cc1)c1c(C)nn(-c2ccccc2)c1O,cell growth or viability,MTT,48 h,,35.9
CC(C)C[C@H](NC(=O)[C@H](C)NC(=O)[C@H](C)NC(=O)[C@H](CCC(N)=O)NC(=O)[C@H](C)NC(=O)[C@H](CO)NC(=O)[C@H](CC(C)C)NC(=O)[C@H](C)NC(=O)[C@@H](NC(=O)[C@H](C)NC(=O)[C@H](Cc1ccc(O)cc1)NC(=O)[C@H](CO)NC(=O)[C@H](CCCCN)NC(=O)[C@H](C)NC(=O)[C@H](Cc1ccccc1)NC(=O)[C@H](CCCCN)NC(=O)[C@H](C)NC(=O)[C@H](Cc1ccccc1)NC(=O)[C@H](CCCCN)NC(=O)[C@H](CCCCN)NC(=O)[C@H](C)NC(=O)[C@H](Cc1ccccc1)NC(=O)[C@H](CCCCN)NC(=O)[C@H](C)NC(=O)[C@H](Cc1ccccc1)NC(=O)[C@H](CCCCN)NC(=O)[C@H](CCCCN)NC(=O)[C@H](C)NC(=O)[C@H](Cc1ccccc1)NC(=O)[C@H](CCCCN)NC(=O)[C@H](C)NC(=O)[C@H](Cc1ccccc1)NC(=O)[C@@H](N)CCCCN)C(C)C)C(=O)N[C@@H](C)C(=O)N[C@@H](CCCNC(=N)N)C(=O)N[C@@H](CCCNC(=N)N)C(=O)O,viable cell number,MTS,6 h,,5.5
